# Published values pooled from the literature.
# ± marks the error that the study gave.
# Cell line: HCT-116
SMILES,observed,method,time,notes,IC50
O=C(Cn1c(=O)c(Cc2ccccc2)nc2ccccc21)NN1C(=O)c2ccccc2C1=O,cell growth or viability,MTT,72 h,,0.063 µM
O=C(NCCCCCCNc1n[n+]([O-])c2ccccc2[n+]1[O-])C(F)(F)F,cytotoxicity,MTT,24 h,hypoxia,63.9 µM
C#CCN(CC(=O)O[C@H]1[C@H](C)O[C@@H](O[C@H]2[C@H](N(C)C)[C@@H](O)[C@H](O[C@H]3[C@@H](CC=O)C[C@@H](C)[C@@H](O[C@H]4CC[C@H](N(C)C)[C@@H](C)O4)/C=C/C=C/C[C@@H](C)OC(=O)C[C@@H](O)[C@@H]3OC)O[C@@H]2C)C[C@@]1(C)O)C(=O)c1ccc(C(F)(F)F)cc1,cell growth or viability,CCK-8,72 h,,1.03 µM
CSc1nc(Nc2ccc(C(=O)N/N=C/c3ccccc3Cl)cc2)c(C#N)c(-c2ccccc2)n1,cell growth or viability,MTT,48 h,,30.2 µM
C=C1C(=O)OC2CC3=C[C@@H](C/C(C)=C/C(OC(=O)Cc4cccc5ccccc45)[C@H]12)OC3=O (stereo partly shown),cell growth or viability,MTT,24 h,,0.14 µM
CCOC(=O)c1ccc(NC(=O)CCc2nc3cc(Cl)ccc3[nH]c2=O)cc1,cell growth or viability,MTT,,,36 µM
NS(=O)(=O)c1ccc(Nc2nccc(-c3cn(C4CCCCC4)nn3)n2)cc1,cell growth or viability,SRB,72 h,,4.31 µM
CCCCSc1nc(N)c2c(F)c(F)c(C#N)c(F)c2n1,cell growth or viability,MTT,96 h,,9.32 µM
Nc1ccccc1NC(=O)c1ccc(Nc2nccc(-c3cn(C4CCCC4)nn3)n2)cc1,cell growth or viability,SRB,72 h,,2.2 µM
COc1ccc([C@@H]2COc3cc(O)ccc3C2)c(OC)c1,cell growth or viability,MTT,72 h,,31.9 µM
C#CCN(CC(=O)O[C@H]1[C@H](C)O[C@@H](O[C@H]2[C@H](N(C)C)[C@@H](O)[C@H](O[C@H]3[C@@H](CC=O)C[C@@H](C)[C@@H](O[C@H]4CC[C@H](N(C)C)[C@@H](C)O4)/C=C/C=C/C[C@@H](C)OC(=O)C[C@@H](O)[C@@H]3OC)O[C@@H]2C)C[C@@]1(C)O)C(=O)c1ccc(C(C)(C)C)cc1,cell growth or viability,CCK-8,72 h,,11 µM
CNS(=O)(=O)Nc1cccc(-n2c(=O)n(C3CC3)c(=O)c3c(Nc4ccc(I)cc4F)n(C)c(=O)c(C)c32)c1,cell viability,resazurin,120 h,low attachment,7e-05 ± 4e-05 µM
Cc1cc(C)c(N[C](NCc2ccc(N[C](Nc3c(C(C)C)cccc3C(C)C)=[Pd-]([Cl])([Cl])[C]#[N+]c3c(C(C)C)cccc3C(C)C)cc2)=[Au][Cl])c(C)c1,cell growth or viability,,,,> 100 µM
OC[C@H]1[C@@H](O)[C@@H](O)CN1CCc1ccccc1,cell growth or viability,MTS,72 h,,> 200 µM
CC12CCCC(n3cc(C(=O)N4CC(N)C4)nn3)(C1)C1CC(C)(C)C1CC2 (stereo not shown),cell growth or viability,CCK-8,72 h,,13.7 µM
O=C(NNc1nc(-c2ccccc2)cs1)c1cc2c(ccc3ccccc32)oc1=O,cell growth or viability,SRB,72 h,,76.9 µM
NC1=N[N+](=Cc2c3ccccc3cc3ccccc23)[Ga-3]23([S]1)([S]C(N)=N[N+]2=Cc1c2ccccc2cc2ccccc12)[S]C(N)=N[N+]3=Cc1c2ccccc2cc2ccccc12,,,72 h,,13.1 ± 1.2 µM
C/C(=N\N=c1/[nH]c(-c2ccccc2)cs1)c1c(O)c2ccccc2oc1=O,cell growth or viability,MTT,48 h,,31.8 µM
COc1cc(C2COc3cc(O)cc(O)c3C2=NN)c(OC)cc1O (stereo not shown),cell growth or viability,MTT,72 h,,126 µM
CO[C@@H]1[C@@H](O[C@@H]2O[C@H](C)[C@@H](O[C@H]3C[C@@](C)(O)[C@@H](OC(=O)CN(C)C)[C@H](C)O3)[C@H](N(C)C)[C@H]2O)[C@@H](CC=O)C[C@@H](C)[C@@H](O[C@H]2CC[C@H](N(C)C)[C@@H](C)O2)/C=C/C=C/C[C@@H](C)OC(=O)C[C@H]1O,cell growth or viability,CCK-8,72 h,,> 50 µM
CCOC(=O)C/C(C)=N/NC(=O)c1nc2ccccc2n(C)c1=O,cell growth or viability,MTT,48 h,,13 µM
CC(C)c1ccc2c(c1)CCC1[C@](C)(C(=O)OCCSc3nc(O)c(C#N)c(-c4ccc(F)cc4)n3)CCC[C@]21C (stereo partly shown),cell growth or viability,MTT,48 h,,9.53 to 19.4 µM
O=C(CCn1nc(Cc2ccccc2)c2ccccc2c1=O)NCC(=O)N1CCOCC1,cell growth or viability,MTT,48 h,,≥ 50 µM
CN1CCN(C(=O)c2cn(C34CCCC(C)(CCC5C3CC5(C)C)C4)nn2)CC1 (stereo not shown),cell growth or viability,CCK-8,72 h,,22.2 µM
C=CCSc1nc(N)c2c(F)c(C#N)c(F)c(Cl)c2n1,cell growth or viability,MTT,96 h,,5.02 µM
CC(C)(C)CC(C)(C)Nc1c(-c2ccc3c(c2)OCO3)nc2cnccn12,cell growth or viability,MTT,24 h,,27.5 µM
CCCCCCCC(=O)O[C@H]1[C@H](C)O[C@@H](O[C@H]2[C@H](N(C)C)[C@@H](O)[C@H](O[C@H]3[C@@H](CC=O)C[C@@H](C)[C@@H](O[C@H]4CC[C@H](N(C)C)[C@@H](C)O4)/C=C/C=C/C[C@@H](C)OC(=O)C[C@@H](O)[C@@H]3OC)O[C@@H]2C)C[C@@]1(C)O,cell growth or viability,CCK-8,72 h,,10.6 µM
Cc1cc(C)c([N+]#[C][Pt-]([Cl])([Cl])=[C](Nc2ccc(CN[C](NC(C)(C)C)=[Au][Cl])cc2)Nc2c(C)cc(C)cc2C)c(C)c1,cell growth or viability,,,,0.5 µM
Fc1ccc(-c2cn(CSc3ccccc3)nn2)c(F)c1,cell growth or viability,MTS,72 h,,20.5 µM
CCCc1cc(O)nc(SCCOC(=O)[C@]2(C)CCC[C@]3(C)c4ccc(C(C)C)cc4CCC23)n1 (stereo partly shown),cell growth or viability,MTT,48 h,,9.53 µM
C/C(=N\N=c1\sc(/N=N/c2ccc([N+](=O)[O-])cc2[N+](=O)[O-])c(C)n1C)c1c(O)c2ccccc2oc1=O,cell growth or viability,LDH,48 h,,2.7 µM
CC(C)CC(NC(=O)CCn1nc(Cc2ccccc2)c2ccccc2c1=O)C(=O)NN (stereo not shown),cell growth or viability,MTT,48 h,,1.58 µM
Cc1cc(C)c([N+]#[C][Pd-]([Cl])([Cl])=[C](Nc2cccc(CN[C](NC(C)(C)C)=[Au][Cl])c2)Nc2c(C)cc(C)cc2C)c(C)c1,cell growth or viability,,,,5.2 µM
COC(=O)CNC(=O)CNC(=O)CNC(=O)COc1ccc2c(C)cc(=O)oc2c1,cell growth or viability,MTT,,,219 µM
Cc1ccc(C(C)C)cc1.[Au][S]C1=NCCS1.[Cl][Ru][Cl].c1ccc(P(CP(c2ccccc2)c2ccccc2)c2ccccc2)cc1,cell growth or viability,trypan blue,48 h,,6.5 µM
N#Cc1c(F)c(F)c2nc(SCc3ccccc3)nc(N)c2c1F,cell growth or viability,MTT,96 h,,4.89 µM
O=C(NCCNc1n[n+]([O-])c2ccccc2[n+]1[O-])C(F)(F)F,cytotoxicity,MTT,24 h,normoxia,44 ± 17.2 µM
CC(C)c1cccc(C(C)C)c1[N+]#[C][Pt-]([Cl])([Cl])=[C](Nc1cccc(CN[C](NC(C)(C)C)=[Au][Cl])c1)Nc1c(C(C)C)cccc1C(C)C,cell growth or viability,,,,> 100 µM
Cc1ccc2nc(C)n(/N=C/c3ccc(C(=O)O)cc3)c(=O)c2c1,cytotoxicity,LDH release,24 h,50% viability reduction,460 ± 12.1 µM
CO[C@@H]1[C@@H](O[C@@H]2O[C@H](C)[C@@H](O[C@H]3C[C@@](C)(O)[C@@H](OC(=O)Cc4ccc(C(C)(C)C)cc4)[C@H](C)O3)[C@H](N(C)C)[C@H]2O)[C@@H](CC=O)C[C@@H](C)[C@@H](O[C@H]2CC[C@H](N(C)C)[C@@H](C)O2)/C=C/C=C/C[C@@H](C)OC(=O)C[C@H]1O,cell growth or viability,CCK-8,72 h,,2.24 µM
Cc1cc(C)c([N+]#[C][Pd-]([Cl])([Cl])=[C](Nc2ccc(CN[C](Nc3c(C(C)C)cccc3C(C)C)=[Au][Cl])cc2)Nc2c(C)cc(C)cc2C)c(C)c1,cell growth or viability,,,,> 100 µM
CSc1nc(Nc2ccc(C(=O)N/N=C/c3c(Cl)cccc3Cl)cc2)c(C#N)c(-c2ccccc2)n1,cell growth or viability,MTT,48 h,,7.14 µM
CCN1CCC2(CC1)C/C(=N\NC(=O)Nc1ccc([N+](=O)[O-])cc1)c1ccccc1O2,,,48 h,,62.7 ± 2.67 µM
Cc1c(C)c(C)[c-](C)c1C.OCc1ccnc(-c2[c-]cccc2)c1.[Cl-].[Ir+3],,SRB,24 h,72 h recovery,57.3 ± 0.9 µM
O=C(NCCCNc1n[n+]([O-])c2ccccc2[n+]1[O-])C(F)(F)F,cytotoxicity,MTT,24 h,hypoxia,38.6 µM
CC(C)Cn1cc(-c2ccnc(Nc3ccc(OCCCCCCC(=O)NO)cc3)n2)nn1,cell growth or viability,SRB,72 h,,1.96 µM
Cc1cc(C)c([N+]#[C][Pd-2]([Cl])([Cl])[C]#[N+]c2c(C)cc(C)cc2C)c(C)c1,cell growth or viability,,,,> 100 µM
CSc1nc(Nc2ccc(C(=O)N/N=C/c3ccc(Cl)cc3)cc2)c(C#N)c(-c2ccccc2)n1,cell growth or viability,MTT,48 h,,12.3 µM
C/C(=N\N=C(SCc1ccccc1)SCc1ccccc1)c1ccc(S(=O)(=O)N2CCC(C)CC2)cc1,cell growth or viability,MTT,,,31.8 µM
N=C(N)NS(=O)(=O)c1ccc(-n2cc(Cn3c(=O)c(Cc4ccccc4)nc4ccccc43)nn2)cc1,cell growth or viability,MTT,72 h,,0.029 µM
CSC(=N/N=C(\C)c1ccc(S(=O)(=O)N2CCC(C)CC2)cc1)SC,cell growth or viability,MTT,,,12.6 µM
CCC1=C(CC)C2=[N+]3C1=Cc1c(CC)c(CC)c4[n]1[Ir-3]31([Cl])([C]#[O+])[n]3c(c(CC)c(CC)c3=CC3=[N+]1C(=C4)C(CC)=C3CC)=C2,cell growth or viability,MTT,72 h,,> 50 µM
O=C(NCCCCCCCCNc1n[n+]([O-])c2ccccc2[n+]1[O-])C(F)(F)F,cytotoxicity,MTT,24 h,normoxia,108 ± 21.3 µM
CN1CCC2(CC1)C/C(=N\NC(=O)Nc1ccc(Cl)cc1)c1ccccc1O2,,,48 h,,2.58 ± 0.13 µM
Cc1cc(N2CCN(C(=O)CN3CCN(c4ccccc4)CC3)CC2)n2ncnc2n1,cell growth or viability,MTT,,,7.03 µM
